Measurements of several laboratories.
A part holds a random share of what one study measured. Substitutions count along the parent as printed.

Study 1
Target: CREM, bZIP domain (human)
Method: DHFR protein complementation
Medium: yeast
Setting: single substitutions, most at no-binding floor
Reference: wild-type JUN-FOS pair
Direction: higher = stronger binding
Quantity: binding fitness
Parent: JUN, bZIP domain (human); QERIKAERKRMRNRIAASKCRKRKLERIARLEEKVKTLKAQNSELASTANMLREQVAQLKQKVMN; partner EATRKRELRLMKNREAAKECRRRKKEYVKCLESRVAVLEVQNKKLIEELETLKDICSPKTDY
L31R: -1.52 natural log
N42G: -1.49 natural log
L45G: -1.54 natural log
L52V: -1.53 natural log
K36T: -1.45 natural log
T37L: -1.32 natural log
V56T: -1.47 natural log
S43W: -1.46 natural log

Study 2
Target: Centromere-binding protein 1, full length, His-tagged (CBF1, Saccharomyces cerevisiae, UniProt P17106, residues 1-351)
Sequence of UniProt P17106 (whole entry, looked up): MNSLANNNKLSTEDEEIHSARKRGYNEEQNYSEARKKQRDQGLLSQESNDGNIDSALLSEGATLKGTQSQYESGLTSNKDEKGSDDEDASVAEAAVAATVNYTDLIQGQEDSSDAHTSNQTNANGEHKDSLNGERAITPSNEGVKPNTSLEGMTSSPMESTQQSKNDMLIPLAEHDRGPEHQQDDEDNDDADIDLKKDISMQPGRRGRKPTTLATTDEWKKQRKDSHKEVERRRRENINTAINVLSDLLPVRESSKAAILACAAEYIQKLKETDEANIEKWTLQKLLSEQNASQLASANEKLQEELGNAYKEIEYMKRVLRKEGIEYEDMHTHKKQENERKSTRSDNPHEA
Method: competition protein-binding microarray
Molecule type: double-stranded DNA, one strand shown
Medium: in vitro
Concentration: 2 µM
Setting: whole 60-bp probe, lowest competitor level
With: Pho4 competitor, 0.05 µM
Direction: higher = stronger binding
Quantity: fluorescence intensity
Shared flanks, not repeated: … GTCTTGATTCGCTTGACGCTGCTG
CTCAAACACCACATCTGCGTGATGGCCGCCCAAAAG: 81.3 a.u.
ATTTTTACGGTTACCCACGTACTGCCAGCCATTAGA: 71.1 a.u.
ACTGAAAAAAGCCTGCGCGTGCGGAAACAAAACTGC: 106 a.u.
ATTACCCTTGTTTTTCAATTGAAAACCCGGAACGAT: 79 a.u.
CTGAACATCCTATTCCTCGTGGCCGAATGGTTACGG: 80.3 a.u.
AAAGCGGTAATTTGTCACCTCACTTCACATATCTAT: 78.5 a.u.
ACTGGTAAGCACCGTCACGCTAAAGTCCATTTGGTT: 78.8 a.u.
AAACCAATTGGTCGGCACGTTCTGGCAAATGCGTCC: 143 a.u.

Study 3
Target: RNA binding protein fox-1 homolog 2, RRM domain, GST-SBP tag (RBFOX2, Homo sapiens, UniProt O43251-10, residues 100-194)
Method: RNA Bind-n-Seq
Molecule type: RNA
Medium: in vitro
Concentration: 365 nM
Setting: natural RNA segment, single round, ends assumed
Reference: no-protein control
Direction: higher = stronger binding
Quantity: RBNS enrichment (R)
Shared flanks, not repeated: GGGAGUUCUACAGUCCGACGAUC … UGGAAUUCUCGGGUGCCAA
Residues (chain): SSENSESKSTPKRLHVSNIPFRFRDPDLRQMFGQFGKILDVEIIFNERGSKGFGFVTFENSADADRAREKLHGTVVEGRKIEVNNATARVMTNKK
AACUGAUCUUGUGUCACUUCCAAAGAAUCAUGGGCUUUUUCGAAUAAAAAAAUUUACACUUUUCAGGUUUCGCCCUUUUUCCUGCAUGCCAUCGAAUGGAACGCUCAGGG: 30.3
UUCAAAAGUAUCUUUGCUCUCUUGGGCCUUUUCUUUUACUGUUUUGUUUUUUUUUUUUCUAAUCCUGCUUUCAUACUAGCCAGUGUGGGGAAAAGGUACAAUAUGUCAAA: 0.923
CAAAGGUUUUUCUCUCUCUCAUUCAUAUCCAUACUAACAAGCAUGGUGGCUGGUGCCUCUCCCUAGGAAAGCUUUGGCGUCAUUCAACUCAAGUGUUCUUGUUCUUGUUG: 0.579
UAAUAAAGGCAAGCGGGCUCCAGAGCCUCUCUGGUGGCGGCCAAGCCACACUCCCUUAACUGGGAAGUACCUGCCACGUAGGGCAUUUCUGCUGCCUAUUUCCAGCCAGC: 0.173
AUAAGAGUCAGCAUGGAGAGCCCCUGCUAAUGGAGUACAGCCGCCAGGAGCUACUCAGGAAGGAACGUCUGGUCCUAACCAGUGAGCACUGGUUAGUACUGGUCCCCUUC: 0.184
GCAAAAAAUGUGUUUCAGUUGUACUGUAACCAAAAAUUCUGUCAAUAAAAUAUUUGAGGUUUUCCUGGCUUUGAAGAGUUUAUUUUCUUUUGCGUCUGUCUGUCCCACAC: 0.359
AAAGCUUGUAAAUAUGGGGAUAGUCUGGGUCAGACCCAUCUCUCCCUUACCCAUCUUGCUUCCAAGACCAUUUGUAGUGAGCGAGUGGAUGCUGUGCUACGUGUGAAAUC: 0.472
AAUGACUGGCAGACAAUAUAUGCAUGGACCUUGAUAUGGGUGGAUAGAUUAAGGUUGAACCUUAGACACAAUGUGUGUUGUUAGUUGUAGAGCAGCCAUAUGUGCCAUGG: 2.03

Single results of other studies
CCC(NC(C)C)C(O)c1ccc(O)c(O)c1 (stereo not shown)  viability (Huh-7; 10 µM, 24 h): 102%
